Measured values gathered from unrelated publications.
Compare with care: the assays were run in different laboratories. ± marks the error that the study gave.
KLRK1 with MICA: NKG2-D type II integral membrane protein, with MICA (KLRK1, Homo sapiens, UniProt P26718)
UniProt P26718, sequence (whole entry, looked up): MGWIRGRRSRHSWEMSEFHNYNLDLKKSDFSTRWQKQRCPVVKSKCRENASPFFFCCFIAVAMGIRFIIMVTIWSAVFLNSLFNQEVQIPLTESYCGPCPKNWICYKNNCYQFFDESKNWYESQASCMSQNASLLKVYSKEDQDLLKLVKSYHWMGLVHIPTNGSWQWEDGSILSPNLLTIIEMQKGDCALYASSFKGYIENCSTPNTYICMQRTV
lasR: Transcriptional activator protein LasR (lasR, Pseudomonas aeruginosa, UniProt P25084)
pafA K162A: Alkaline phosphatase PafA (pafA, Elizabethkingia meningoseptica, UniProt Q9KJX5, K162A)
lecA: PA-I galactophilic lectin (lecA, Pseudomonas aeruginosa, UniProt Q05097)
CSNK2A1: Casein kinase II subunit alpha (CSNK2A1, Homo sapiens, UniProt P68400)
UniProt O00411, sequence (whole entry, looked up): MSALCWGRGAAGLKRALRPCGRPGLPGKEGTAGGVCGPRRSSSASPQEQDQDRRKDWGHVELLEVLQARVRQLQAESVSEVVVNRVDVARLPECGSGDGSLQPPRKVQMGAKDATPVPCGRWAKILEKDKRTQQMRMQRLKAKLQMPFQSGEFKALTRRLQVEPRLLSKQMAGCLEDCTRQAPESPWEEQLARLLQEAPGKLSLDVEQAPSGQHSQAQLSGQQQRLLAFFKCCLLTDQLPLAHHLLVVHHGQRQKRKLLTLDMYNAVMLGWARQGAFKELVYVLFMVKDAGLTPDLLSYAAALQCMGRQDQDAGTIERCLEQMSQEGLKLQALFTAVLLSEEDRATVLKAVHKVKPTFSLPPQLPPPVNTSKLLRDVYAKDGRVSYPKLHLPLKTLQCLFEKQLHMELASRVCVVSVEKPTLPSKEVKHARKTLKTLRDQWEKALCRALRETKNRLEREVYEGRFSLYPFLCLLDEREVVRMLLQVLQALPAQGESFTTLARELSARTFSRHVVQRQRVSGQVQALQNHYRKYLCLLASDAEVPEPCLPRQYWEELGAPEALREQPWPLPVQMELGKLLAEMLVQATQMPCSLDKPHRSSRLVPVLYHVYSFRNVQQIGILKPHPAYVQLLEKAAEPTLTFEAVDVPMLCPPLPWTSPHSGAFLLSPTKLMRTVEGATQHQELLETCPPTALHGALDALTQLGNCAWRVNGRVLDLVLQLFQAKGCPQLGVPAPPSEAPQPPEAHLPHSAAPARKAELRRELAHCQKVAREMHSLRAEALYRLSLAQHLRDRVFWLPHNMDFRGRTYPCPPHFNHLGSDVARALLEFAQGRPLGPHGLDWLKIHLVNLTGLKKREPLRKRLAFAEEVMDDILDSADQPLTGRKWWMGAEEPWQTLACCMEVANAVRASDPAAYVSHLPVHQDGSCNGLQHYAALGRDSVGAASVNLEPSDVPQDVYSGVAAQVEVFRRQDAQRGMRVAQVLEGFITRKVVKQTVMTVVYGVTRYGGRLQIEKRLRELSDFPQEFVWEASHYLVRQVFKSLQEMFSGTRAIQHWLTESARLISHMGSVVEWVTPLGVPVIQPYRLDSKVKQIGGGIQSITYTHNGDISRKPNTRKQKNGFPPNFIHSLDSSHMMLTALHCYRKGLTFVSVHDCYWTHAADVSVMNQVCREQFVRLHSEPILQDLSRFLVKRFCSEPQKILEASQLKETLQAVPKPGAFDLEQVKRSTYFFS
UniProt P68400, sequence (whole entry, looked up): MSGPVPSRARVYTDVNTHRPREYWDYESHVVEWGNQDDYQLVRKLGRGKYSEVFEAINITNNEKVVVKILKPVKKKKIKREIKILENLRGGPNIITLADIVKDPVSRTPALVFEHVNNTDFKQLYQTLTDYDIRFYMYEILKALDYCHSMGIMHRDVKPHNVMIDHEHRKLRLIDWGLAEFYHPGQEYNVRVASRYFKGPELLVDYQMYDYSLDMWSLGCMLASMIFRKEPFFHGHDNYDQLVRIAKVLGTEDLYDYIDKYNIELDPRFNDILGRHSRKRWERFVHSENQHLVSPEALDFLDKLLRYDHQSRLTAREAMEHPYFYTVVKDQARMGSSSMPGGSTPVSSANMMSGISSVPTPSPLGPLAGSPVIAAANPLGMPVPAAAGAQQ
UniProt Q6TCG5, sequence (whole entry, looked up): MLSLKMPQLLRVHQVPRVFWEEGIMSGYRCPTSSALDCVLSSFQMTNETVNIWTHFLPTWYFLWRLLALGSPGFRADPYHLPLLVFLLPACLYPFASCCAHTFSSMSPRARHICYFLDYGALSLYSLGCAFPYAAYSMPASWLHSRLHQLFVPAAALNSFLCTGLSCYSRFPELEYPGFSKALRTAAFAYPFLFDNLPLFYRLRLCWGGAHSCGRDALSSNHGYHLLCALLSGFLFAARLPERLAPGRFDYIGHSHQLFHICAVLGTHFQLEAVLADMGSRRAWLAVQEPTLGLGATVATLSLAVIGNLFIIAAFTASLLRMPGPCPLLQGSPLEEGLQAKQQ
UniProt P33535, sequence (whole entry, looked up): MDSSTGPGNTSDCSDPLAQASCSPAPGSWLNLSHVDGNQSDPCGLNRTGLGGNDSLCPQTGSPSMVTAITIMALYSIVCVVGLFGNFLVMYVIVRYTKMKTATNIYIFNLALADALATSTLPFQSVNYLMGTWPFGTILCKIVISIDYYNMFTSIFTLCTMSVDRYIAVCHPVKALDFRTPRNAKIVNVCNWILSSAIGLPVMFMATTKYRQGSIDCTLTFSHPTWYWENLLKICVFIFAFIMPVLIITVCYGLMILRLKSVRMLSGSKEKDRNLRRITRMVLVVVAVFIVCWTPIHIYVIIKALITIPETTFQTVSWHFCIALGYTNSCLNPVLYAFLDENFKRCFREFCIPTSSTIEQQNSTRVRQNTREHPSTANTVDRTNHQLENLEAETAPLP
UniProt O43525, sequence (whole entry, looked up): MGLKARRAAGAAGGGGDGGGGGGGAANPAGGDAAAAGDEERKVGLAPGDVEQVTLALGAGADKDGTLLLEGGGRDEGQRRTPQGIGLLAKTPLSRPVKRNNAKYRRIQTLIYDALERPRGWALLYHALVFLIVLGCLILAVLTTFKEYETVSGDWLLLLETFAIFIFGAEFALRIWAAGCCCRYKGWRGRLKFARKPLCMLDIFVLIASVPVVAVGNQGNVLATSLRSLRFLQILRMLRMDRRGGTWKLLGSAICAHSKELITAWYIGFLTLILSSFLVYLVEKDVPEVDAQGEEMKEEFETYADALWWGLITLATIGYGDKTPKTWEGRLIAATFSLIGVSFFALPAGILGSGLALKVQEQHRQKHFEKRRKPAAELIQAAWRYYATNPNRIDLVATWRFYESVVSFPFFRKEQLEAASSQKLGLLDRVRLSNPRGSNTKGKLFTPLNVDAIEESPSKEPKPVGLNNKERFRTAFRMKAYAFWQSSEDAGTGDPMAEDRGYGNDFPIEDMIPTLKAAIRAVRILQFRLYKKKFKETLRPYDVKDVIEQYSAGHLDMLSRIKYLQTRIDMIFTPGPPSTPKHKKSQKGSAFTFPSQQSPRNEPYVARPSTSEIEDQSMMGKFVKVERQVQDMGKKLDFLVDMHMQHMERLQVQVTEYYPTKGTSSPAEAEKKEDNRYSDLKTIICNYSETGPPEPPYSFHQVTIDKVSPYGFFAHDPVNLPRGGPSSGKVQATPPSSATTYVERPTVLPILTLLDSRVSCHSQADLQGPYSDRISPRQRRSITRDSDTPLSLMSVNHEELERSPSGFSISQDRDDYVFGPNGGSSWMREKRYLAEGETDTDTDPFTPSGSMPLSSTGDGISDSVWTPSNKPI
UniProt Q9NXA8, sequence (whole entry, looked up): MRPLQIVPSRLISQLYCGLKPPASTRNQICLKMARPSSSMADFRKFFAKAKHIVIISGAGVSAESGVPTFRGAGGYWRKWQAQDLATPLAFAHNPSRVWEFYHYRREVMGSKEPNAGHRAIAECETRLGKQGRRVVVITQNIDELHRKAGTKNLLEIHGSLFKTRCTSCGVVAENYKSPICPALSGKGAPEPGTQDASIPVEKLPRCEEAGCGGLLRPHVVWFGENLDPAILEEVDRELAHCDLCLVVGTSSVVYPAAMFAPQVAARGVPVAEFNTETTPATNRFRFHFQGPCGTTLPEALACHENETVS
UniProt P47752, sequence (whole entry, looked up): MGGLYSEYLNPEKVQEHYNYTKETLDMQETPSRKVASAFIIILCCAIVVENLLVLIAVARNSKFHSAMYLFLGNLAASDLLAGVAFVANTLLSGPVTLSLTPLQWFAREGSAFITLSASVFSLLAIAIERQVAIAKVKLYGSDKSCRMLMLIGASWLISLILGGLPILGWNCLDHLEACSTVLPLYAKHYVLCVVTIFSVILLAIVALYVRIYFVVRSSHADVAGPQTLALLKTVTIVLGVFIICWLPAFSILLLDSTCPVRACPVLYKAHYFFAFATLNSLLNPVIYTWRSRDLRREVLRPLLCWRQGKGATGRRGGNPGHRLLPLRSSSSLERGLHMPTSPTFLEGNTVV
UniProt P83916, sequence (whole entry, looked up): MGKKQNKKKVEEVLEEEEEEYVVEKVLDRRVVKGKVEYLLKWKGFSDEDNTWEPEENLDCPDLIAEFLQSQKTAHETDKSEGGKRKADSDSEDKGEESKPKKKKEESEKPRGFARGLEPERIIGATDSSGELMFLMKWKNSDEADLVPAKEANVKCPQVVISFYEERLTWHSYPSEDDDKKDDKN
UniProt P00691, sequence (whole entry, looked up): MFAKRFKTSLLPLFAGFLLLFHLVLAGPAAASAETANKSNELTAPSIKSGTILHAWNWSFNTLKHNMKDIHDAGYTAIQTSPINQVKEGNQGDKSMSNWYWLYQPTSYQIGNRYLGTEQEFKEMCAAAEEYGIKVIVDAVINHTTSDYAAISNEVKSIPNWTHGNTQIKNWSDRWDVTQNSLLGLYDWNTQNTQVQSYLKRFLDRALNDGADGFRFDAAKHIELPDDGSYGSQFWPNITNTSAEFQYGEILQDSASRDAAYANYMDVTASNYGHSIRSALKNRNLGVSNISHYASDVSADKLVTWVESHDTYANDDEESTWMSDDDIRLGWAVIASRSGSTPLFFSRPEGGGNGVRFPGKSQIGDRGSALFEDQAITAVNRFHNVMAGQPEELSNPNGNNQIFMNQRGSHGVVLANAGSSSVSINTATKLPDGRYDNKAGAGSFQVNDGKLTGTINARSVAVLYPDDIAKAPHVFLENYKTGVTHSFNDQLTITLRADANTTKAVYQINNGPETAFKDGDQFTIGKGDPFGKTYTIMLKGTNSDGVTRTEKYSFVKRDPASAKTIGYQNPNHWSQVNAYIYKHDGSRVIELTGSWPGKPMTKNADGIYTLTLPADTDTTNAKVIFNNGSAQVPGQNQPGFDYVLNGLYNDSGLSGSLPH

`O=C(O)c1cc(Cl)cc(NC(=O)C(F)(F)F)c1` — result for “STD NMR signal”: 0.75% (Amyloid-beta precursor protein, amyloid-beta 1-40 oligomers (APP, Homo sapiens, UniProt P05067); binding, STD NMR; highest STD).
`CC(C)C[C@H](NC(=O)[C@H](Cc1ccccc1)NC(=O)CNC(=O)CNC(=O)[C@@H](N)Cc1ccc(O)cc1)C(=O)O` has a current amplitude of 182 ± 8.5 pA (K+ current, agonist, photo-uncaging; rat locus coeruleus neurons; concentration not given, large somatic currents).
Under “lipophilic ligand efficiency”, `CN(C)C(=O)[C@@H](NC(=O)c1cnccc1-c1ccc(C(F)(F)F)cc1)c1cccc(C(F)(F)F)c1` is recorded as 3.4 (KLRK1 with MICA; cellular TR-FRET binding; pIC50 minus ChromLogD).
`NCC1OC(OC(CO)C2CC(O)C(n3ccc(=O)[nH]c3=O)O2)C(O)C1O` (centres unmarked) gave a binding stoichiometry of 0.44 ± 0.02 (mraY (Aquifex aeolicus, UniProt O66465); isothermal titration calorimetry; concentration not given, wild type, with: Mg2+).
The Hill slope of `Cc1nc(=O)c2cc(CN(C)c3cccc(C(=O)N[C@@]4(C(=O)O)CCC[C@@H](C(=O)O)C4)c3)ccc2[nH]1` is reported as 1 (4'-phosphopantetheinyl transferase PptT (Mycobacterium tuberculosis, UniProt O33336); enzyme activity, inhibitor, fluorescence polarization).
With `CCCCc1cn(CC(=O)N[C@H]2CCOC2=O)nn1` the activation was 0% (lasR; reporter gene, agonist; Escherichia coli, DH5α pJN105L/pSC11; 100 µM; reference: OdDHL at same concentration).
`C[C@@]1(O)CC[C@H]2[C@H](CC[C@@H]3[C@@H]2CC[C@]2(C)[C@@H](C(=O)Cn4cccn4)CC[C@@H]32)C1` gave a PKA activation of 93.1 ± 2.69% (Membrane progestin receptor delta (Paqr6, Mus musculus, UniProt Q6TCG5); pPKA/PKA immunoblot; MDA-MB-231 expressing Paqr6-GFP; 30 nM, 20 min; reference: control).
For `CCCCCn1cc(C(=O)c2cccc3c2CC(C)(C)C3)c2ccccc21`, the Emax reduction was ~30% (CNR1 (Homo sapiens, UniProt P21554, L193I); Gαi1 engagement, agonist, BRET; reference: wild type receptor).
`O=P(O)(O)Oc1ccccc1`: “relative catalytic efficiency” 100000 (pafA K162A; Chryseobacterium meningosepticum; pH 8.0; reference: wild type over mutant kcat/KM).
`CC[C@H](C)[C@H](NC(=O)[C@H](Cc1c[nH]cn1)NC(=O)[C@H](CCCCNC(=O)[C@@H](NC(=O)[C@H](CCCCN)NC(=O)[C@H](Cc1ccccc1)NC(=O)[C@H](CCCCNC(=O)[C@H](CC(C)C)NC(=O)[C@@H]1CCCN1C(=O)[C@H](CCCCN)NC(=O)c1ccc(O[C@@H]2O[C@H](CO)[C@H](O)[C@H](O)[C@H]2O)cc1)NC(=O)[C@H](CC(C)C)NC(=O)[C@@H]1CCCN1C(=O)[C@H](CCCCN)NC(=O)c1ccc(O[C@@H]2O[C@H](CO)[C@H](O)[C@H](O)[C@H]2O)cc1)[C@@H](C)CC)NC(=O)[C@@H](NC(=O)[C@H](CCCCN)NC(=O)[C@H](Cc1ccccc1)NC(=O)[C@H](CCCCNC(=O)[C@H](CC(C)C)NC(=O)[C@@H]1CCCN1C(=O)[C@H](CCCCN)NC(=O)c1ccc(O[C@@H]2O[C@H](CO)[C@H](O)[C@H](O)[C@H]2O)cc1)NC(=O)[C@H](CC(C)C)NC(=O)[C@@H]1CCCN1C(=O)[C@H](CCCCN)NC(=O)c1ccc(O[C@@H]2O[C@H](CO)[C@H](O)[C@H](O)[C@H]2O)cc1)[C@@H](C)CC)C(N)=O` gave a ΔG of -9.4 kcal/mol (lecA; isothermal titration calorimetry; pH 7.5, 25 °C, with: 25 mM CaCl2).
The remaining activity of `C#CCNC(=O)c1ccc(S(=O)(=O)N[C@@H](CCCCNC(=O)c2cncc(OS(=O)(=O)F)c2)C(=O)N[C@@H](CCCNC(=N)N)C(=O)NC2CCC2)cc1` is reported as ~10% (SIRT5 (Homo sapiens, UniProt Q9NXA8); enzyme activity, inhibitor, jump-dilution; concentration not given, 16 h preincubation, 100-fold dilution; reference: DMSO).
`CC(C)P(=[Se])(NP(=[Se])(C(C)C)C(C)C)C(C)C` has a donor–acceptor distance of 3.42 nm (Alpha-amylase (Bacillus subtilis, UniProt P00691); binding, FRET; 298 K).
For `CC[C@H](C)[C@H](NC(=O)[C@H](CCCCN)NC(=O)[C@H](Cc1ccccc1)NC(=O)[C@H](CCCCNC(=O)[C@H](CC(C)C)NC(=O)[C@@H]1CCCN1C(=O)[C@H](CCCCN)NC(=O)CCS[C@@H]1O[C@H](CO)[C@H](O)[C@H](O)[C@H]1O)NC(=O)[C@H](CC(C)C)NC(=O)[C@@H]1CCCN1C(=O)[C@H](CCCCN)NC(=O)CCS[C@@H]1O[C@H](CO)[C@H](O)[C@H](O)[C@H]1O)C(N)=O`, “relative potency per galactoside” read 18 (lecA; binding, isothermal titration calorimetry; divided by galactoside copies; reference: monovalent galactoside KD over ligand KD).
With `Cn1cc(-c2cccc(CN3CCC4(CC3)COc3c4ccc4c3CN([C@H]3CCC(=O)NC3=O)C4=O)c2)cn1` the degradation was 65% (Ikzf2/Crbn (Mus musculus, UniProt P81183+Q8C7D2, I391V); mouse Crbn I391V, thymus; oral, 30 mg/kg single dose, 6 h).
`CN(C)C(=O)C(NC(=O)c1ccccc1-c1ccc(C(F)(F)F)cc1)c1cccc(C(F)(F)F)c1` (centres unmarked): “association rate constant” 144 M⁻¹ s⁻¹ (NKG2-D type II integral membrane protein (KLRK1, Homo sapiens, UniProt P26718); binding, SPR).
Under “binding free energy”, `CC[C@H](C)[C@H](NC(=O)CN)C(=O)N[C@@H](CC(C)C)C(=O)N[C@@H](CCCCN)C(=O)N[C@@H](Cc1ccccc1)C(=O)N[C@@H](CC(C)C)C(=O)N[C@@H](CCC(=O)O)C(=O)N[C@@H](CO)C(=O)N[C@@H](C)C(=O)N[C@@H](CCCCN)C(=O)N[C@@H](CCCCN)C(=O)N[C@@H](Cc1c[nH]c2ccccc12)C(=O)N[C@@H](CC(C)C)C(=O)N[C@@H](CCC(=O)O)C(=O)N[C@@H](C)C(=O)N[C@@H](Cc1ccccc1)C(=O)N[C@@H](CC(C)C)C(=O)N[C@@H](C)C(=O)N[C@@H](CCC(=O)O)C(=O)N[C@H](C(=O)N[C@@H](CCSC)C(=O)N[C@@H](CC(N)=O)C(=O)N[C@@H](CO)C(=O)O)[C@@H](C)CC` is recorded as -7.4 kcal/mol (POPC membrane; membrane binding, stopped-flow FRET; mole fraction units, room temperature).
`COc1ccc(NC(=O)Cn2c(=O)c3ccccc3n(CC(=O)Nc3cc([125I])c(OC)cc3OC)c2=O)cc1` has a kidney binding of 72 PSL/mm² (Sphingosine 1-phosphate receptor 2 (Rattus norvegicus, UniProt P47752); in vitro autoradiography; Sprague-Dawley rat, control, kidney sections; dose not given).
For `CN1C(=O)[C@H](Cc2ccccc2)N(C)C(=O)[C@@H]2[C@H]1CCN2Cc1cc(Cl)cc(Cl)c1`, the ligand efficiency was 0.23 (KLRK1 with MICA; cellular TR-FRET binding).
`CN[C@](C)(C[18F])C(=O)O` gave a tracer uptake of 28 %ID/g (DU-145 tumour model; host not given, kidney; 15 min, tumour-bearing).
`N#C[C@@]1(c2ccc3c(N)ncnn23)O[C@H](COP(=O)(O)OP(=O)(O)OP(=O)(O)O)[C@@H](O)[C@H]1O` — result for “single nucleotide incorporation rate”: 5.8% (POLRMT (Homo sapiens, UniProt O00411); substrate; 500 µM; reference: natural NTP).
`CC(=O)N[C@@H](Cc1c[nH]c2ccccc12)C(=O)N[C@@H](CCC(=O)O)C(=O)N[C@@H](Cc1c[nH]cn1)C(=O)N[C@@H](CC(=O)O)C(=O)Nc1ccc2c(C)cc(=O)oc2c1` gave a Vmax of 209 ± 17.5 RFU/min (Caspase-6 (CASP6, Homo sapiens, UniProt P55212); substrate cleavage, substrate, fluorogenic AMC release; enzyme 0.25 activity units/µL).
Under “inactivation rate constant”, `NC(CNC(CNC(CC(=O)O)C(=O)O)C(=O)O)C(=O)O` (centres unmarked) is recorded as 0.0062 s⁻¹ (blaNDM-1 (Klebsiella pneumoniae, UniProt C7C422); enzyme activity, inactivator; 37 °C, enzyme 50 nM, with: nitrocefin 20 µM).
For `O=[N+]([O-])c1ccc(OP(=O)(O)O)cc1`, the kcat was 0.03 s^–1 (pafA K162A; substrate; pH 8.0).
The selectivity ratio of `CCNCCN(C)c1ccc(Nc2cc(NC3CC3)n3ncc(C#N)c3n2)cc1NC(=O)CC` is reported as 6 to 8 fold (CSNK2A1; binding, NanoBRET; reference: CSNK2A1 over CSNK2A2).
Under “highest concentration without inhibition”, `CC[C@H](C)[C@H](NC(=O)[C@H](CO)NC(=O)[C@H](Cc1ccc(O)cc1)NC(=O)[C@H](CCCCN)NC(=O)[C@@H]1CCCN1C(=O)[C@H](CCSC)NC(=O)[C@@H](N)Cc1ccccc1)C(=O)O` is recorded as > 100 µM (OGT (Homo sapiens, UniProt O15294); enzyme activity, fluorescence activity).
`C[C@H](NC(=O)[C@H](Cc1ccccc1)NC(=O)c1ccc(Br)cc1)C(=O)N[C@H](C(=O)N[C@@H](CCCC[N+](C)(C)C)C(=O)N[C@@H](CO)C(N)=O)C1CCCC1` has a selectivity ratio of 36 fold (Chromobox protein homolog 1 (Homo sapiens, UniProt P83916); competitive fluorescence polarization; reference: CBX7 over Chromobox protein homolog 1).
Under “V1/2 of inactivation”, `CCN(Cc1ccccc1)C(=O)CCc1nc(CN2CCN(C(=O)Cc3ccc(OC)c(OC)c3)CC2)no1` is recorded as -94.5 ± 9.11 mV (Sodium channel protein type 11 subunit alpha (Scn11a, Rattus norvegicus, UniProt O88457); whole-cell patch clamp; rat DRG neurons; 300 nM).
`CCCCCCc1cn(-c2ccc(C(=O)N[C@H]3CCOC3=O)cc2)nn1` gave an activation of 0% (lasR; reporter gene, agonist; Escherichia coli DH5α pJN105L/pSC11; 10 µM; reference: OdDHL 100 µM).
`Cc1cc(O)cc(C)c1CC(N)C(=O)NC1CCNc2c(C(=O)NCc3ccccc3)cc(Cc3ccccc3)cc21` (centres unmarked) has an efficacy of 73% (Oprm1 (Rattus norvegicus, UniProt P33535); agonist; C6 cells expressing MOR; reference: DAMGO at 10 µM).
`CN1C(CCCc2ccccc2)CCC1CCCc1ccccc1` (centres unmarked) has a maximal inhibition of 100% (Slc18a2 (Rattus norvegicus, UniProt Q01827); binding; rat whole brain vesicles; with: [3H]dihydrotetrabenazine).
For `O=C(CC12CC3CC(CC(C3)C1)C2)NCCOCC(=O)NC1CCN(S(=O)(=O)c2cc(C(=O)Nc3cc(F)c(F)c(F)c3)ccc2F)CC1`, the ΔTm was 5.4 °C (Capsid protein (C, Hepatitis B virus genotype D subtype ayw, UniProt P03146); cellular thermal shift; Hepatitis B virus, HepAD38 cell lysate; 6 µM; reference: DMSO).
For `CC[C@H](C)[C@@H]1NC(=O)[C@H](Cc2ccc(O)cc2)NC(=O)[C@@H](N)CSSC[C@@H](C(=O)N2CCC[C@H]2C(=O)N[C@@H](CC(C)C)C(=O)NCC(N)=O)NC(=O)[C@H](CC(N)=O)NC(=O)[C@H](CCC(N)=O)NC1=O`, the Emax was 3870 RFU (Oxytocin receptor (OXTR, Homo sapiens, UniProt P30559); Ca2+ mobilisation, agonist; CHO cells).
`CC(=O)Nc1ccc2ccn(-c3cc(NS(C)(=O)=O)n4ncc(C#N)c4n3)c2c1` — result for activity: “inactive” (CSNK2A1; HEK293; 10 µM).
`CCCCC/C=C\C/C=C\C/C=C\C/C=C\CCCC(=O)NC(CO)C(=O)O` (stereo in doubt) gave an onset time of ≤ 2 min (Voltage-gated potassium channel, KQT; KCNQ2(Kv7.2)/KCNQ3(Kv7.3) (KCNQ3/KCNQ2, Homo sapiens, UniProt O43525+O43526); two-electrode voltage clamp; Xenopus oocytes; 10 µM).
`C=C(NC(=O)C(=C)NC(=O)c1csc(C2=NC3c4csc(n4)C4NC(=O)c5csc(n5)C(C(C)(O)C(C)O)NC(=O)C5CSC(=N5)C(=CC)NC(=O)C(C(C)O)NC(=O)c5csc(n5)C3(CC2)NC(=O)C(C)NC(=O)C(=C)NC(=O)C(C(C)CC)NC2C=Cc3c(C(C)O)cc(nc3C2O)C(=O)OC4C)n1)C(N)=O` (centres unmarked) — result for “IC50 fold change”: ≤ 6 fold (PSMB5 (Homo sapiens, UniProt P28074); chymotrypsin-like activity, inhibitor; with: Suc-LLVY-AMC; reference: thiostrepton A).
